# Measured values pooled from the literature.
# Protocols differ between the studies behind these lines. ± gives the spread as reported.
SMILES,assay,test system,setting,how to read,endpoint,result
O=C(CN1C(=O)C2(CCN(C(=O)c3ccc4[nH]ncc4n3)CC2)c2c(Br)cccc21)NCC(F)(F)F,,"male C57BL/6 mouse, plasma","intravenous, 2 mg/kg",,clearance,24.3 mL/min/kg
CSCC[C@H](NC(=O)CNC(=O)[C@H](CCCCN)NC(=O)[C@H](CC(C)C)NC(=O)[C@@H]1CCCN1C(=O)[C@H](CO)NC(=O)[C@H](Cc1c[nH]cn1)NC(=O)[C@H](Cc1c[nH]c2ccccc12)NC(=O)[C@H](CCCNC(=N)N)NC(=O)[C@H](CC(C)C)NC(=O)[C@H](CCCNC(=N)N)NC(=O)[C@H](Cc1c[nH]c2ccccc12)NC(=O)[C@H](CS)NC(=O)CCCCCNC(=O)CN1CCN(CC(=O)O)CCN(CC(=O)O)CCN(CC(=O)O)CC1)C(=O)O [copper-64 labelled],,"C57BL/6J mice, B16-F10 tumour","intravenous, 1.85 MBq, 0.5 h",baseline: tumour over blood,tumour-to-blood ratio,1.48
CCCCCCCCCCCCCCCC(=O)N[C@@H](CCC(=O)NCCOCCOCCC(=O)NCCOCCOCCC(=O)NCCCC[C@H](NC(=O)[C@H](CC(=O)O)NC(=O)[C@H](CC(C)C)NC(=O)[C@H](Cc1ccc(O)cc1)NC(=O)[C@H](CCCCN)NC(=O)[C@H](CO)NC(=O)[C@H](Cc1ccc(O)cc1)NC(=O)[C@H](CC(=O)O)NC(=O)[C@H](CO)NC(=O)[C@@H](NC(=O)[C@H](Cc1ccccc1)NC(=O)[C@@H](NC(=O)CNC(=O)[C@H](CCC(N)=O)NC(=O)[C@@H](CO)NC(=O)[C@@H](N)Cc1c[nH]cn1)[C@@H](C)O)[C@@H](C)O)C(=O)N[C@@H](CCCNC(=N)N)C(=O)N[C@@H](CCCNC(=N)N)C(=O)N[C@@H](C)C(=O)N[C@@H](CCC(N)=O)C(=O)N[C@@H](CC(=O)O)C(=O)N[C@@H](Cc1ccccc1)C(=O)N[C@H](C(=O)N[C@@H](CCC(N)=O)C(=O)N[C@@H](Cc1c[nH]c2ccccc12)C(=O)N[C@@H](CC(C)C)C(=O)N[C@@H](CC(C)C)C(=O)N[C@@H](CC(N)=O)C(=O)N[C@H](C(=O)NCC(=O)NCC(=O)N1CCC[C@H]1C(=O)N[C@@H](CO)C(=O)N[C@@H](CO)C(=O)NCC(=O)N[C@@H](C)C(=O)N1CCC[C@H]1C(=O)N1CCC[C@H]1C(=O)N1CCC[C@H]1C(=O)N[C@@H](CO)C(N)=O)[C@@H](C)O)C(C)C)C(=O)O,,"rhesus monkey, plasma","subcutaneous, 5 µg/kg, single dose",,Cmax,1.96 ng/mL
CC(C)=CCC/C(C)=C/CCn1cc(CC(P(=O)(O)O)P(=O)(O)O)nn1,,"CD-1 mouse, plasma","intravenous, 0.5 mg/kg, single dose",,C0,1380 ng/mL
N=C(N)NCCC[C@H](NC(=O)[C@H](CCCNC(=N)N)NC(=O)[C@H](CCCNC(=N)N)NC(=O)[C@H](CCC(N)=O)NC(=O)[C@H](CCCNC(=N)N)NC(=O)[C@H](CCCNC(=N)N)NC(=O)[C@H](CCCCN)NC(=O)[C@H](CCCCN)NC(=O)[C@H](CCCNC(=N)N)NC(=O)CNC(=O)[C@H](Cc1ccc(O)cc1)NC(=O)[C@H](Cc1ccccc1)NC(=O)[C@H](Cc1ccccc1)NC(=O)[C@H](Cc1ccccc1)NC(=O)Cc1ccc2ccccc2c1)C(=O)O,,C57BL/6 mice,"intraperitoneal, 20 mg/kg, 0.5 h",direction not given,health score,4.5 ± 0.55
CC(C)[C@@H]1NC(=O)CNC(=O)[C@H](CC(N)=O)NC(=O)[C@H](CCCNC(=N)N)NC(=O)[C@H](Cc2ccc(O)cc2)NC(=O)[C@H](C(C)C)NC(=O)[C@@H](NC(=O)[C@@H](NC(=O)[C@H](CC(N)=O)NC(=O)[C@H](Cc2c[nH]c3ccccc23)NC(=O)[C@H](C)NC(=O)[C@H](Cc2ccccc2)NC(=O)CNC(=O)[C@H](CCCCN)NC(=O)[C@H](Cc2ccccc2)NC(=O)[C@H](Cc2ccccc2)NC(=O)[C@H](CCCCN)NC(=O)OCC2c3ccccc3-c3ccccc32)C(C)C)CSSC[C@@H](C(=O)N[C@@H](Cc2c[nH]cn2)C(=O)N[C@@H](CCCNC(=N)N)C(=O)N[C@@H](CCCNC(=N)N)C(=O)N[C@@H](C)C(=O)N[C@@H](CC(N)=O)C(N)=O)NC(=O)[C@H](C(C)C)NC(=O)[C@H](CCCNC(=N)N)NC1=O,,"ICR mice, serum","intraperitoneal, 5 mg/kg, day 5",,globulin,18.62 ± 0.07 g/L
CC(C)[C@H]1NC(=O)[C@H](Cc2ccccc2)NC(=O)[C@@H](C(C)C)NC(=O)[C@@H](C)NC(=O)[C@H](CO)NC(=O)[C@@H](Cc2c(-c3ccc(-c4ccc5ccccc5c4)cc3)[nH]c3ccccc23)NC(=O)[C@@H](CO)NC1=O,,"female Sprague-Dawley rat, plasma","intravenous, 1 mg/kg, single dose",,AUC(0-t),3350 ng·h/mL
CSCC[C@H](N)C(=O)N[C@@H](C)C(=O)N[C@@H](CCCNC(=N)N)C(=O)N[C@@H](CCCNC(=N)N)C(=O)N[C@@H](CC(=O)O)C(=O)N[C@@H](CCCCN)C(=O)N[C@H](C(=O)N[C@@H](CC(=O)O)C(=O)N[C@@H](Cc1ccccc1)C(=O)N[C@@H](C)C(=O)N[C@@H](CCCNC(=N)N)C(=O)N[C@@H](CCCNC(=N)N)C(=O)N[C@@H](CCCNC(=N)N)C(=O)N[C@@H](CCCNC(=N)N)C(=O)NCCCCCC(=O)NCCCCC(NC(=O)CCCCCNC(=O)[C@H](CCCNC(=N)N)NC(=O)[C@H](CCCNC(=N)N)NC(=O)[C@H](CCCNC(=N)N)NC(=O)[C@H](CCCNC(=N)N)NC(=O)[C@H](C)NC(=O)[C@H](Cc1ccccc1)NC(=O)[C@H](CC(=O)O)NC(=O)[C@@H](NC(=O)[C@H](CCCCN)NC(=O)[C@H](CC(=O)O)NC(=O)[C@H](CCCNC(=N)N)NC(=O)[C@H](CCCNC(=N)N)NC(=O)[C@H](C)NC(=O)[C@@H](N)CCSC)[C@@H](C)O)C(=O)NCCCCC(NC(=O)C(CCCCNC(=O)CCCCCNC(=O)[C@H](CCCNC(=N)N)NC(=O)[C@H](CCCNC(=N)N)NC(=O)[C@H](CCCNC(=N)N)NC(=O)[C@H](CCCNC(=N)N)NC(=O)[C@H](C)NC(=O)[C@H](Cc1ccccc1)NC(=O)[C@H](CC(=O)O)NC(=O)[C@@H](NC(=O)[C@H](CCCCN)NC(=O)[C@H](CC(=O)O)NC(=O)[C@H](CCCNC(=N)N)NC(=O)[C@H](CCCNC(=N)N)NC(=O)[C@H](C)NC(=O)[C@@H](N)CCSC)[C@@H](C)O)NC(=O)CCCCCNC(=O)[C@H](CCCNC(=N)N)NC(=O)[C@H](CCCNC(=N)N)NC(=O)[C@H](CCCNC(=N)N)NC(=O)[C@H](CCCNC(=N)N)NC(=O)[C@H](C)NC(=O)[C@H](Cc1ccccc1)NC(=O)[C@H](CC(=O)O)NC(=O)[C@@H](NC(=O)[C@H](CCCCN)NC(=O)[C@H](CC(=O)O)NC(=O)[C@H](CCCNC(=N)N)NC(=O)[C@H](CCCNC(=N)N)NC(=O)[C@H](C)NC(=O)[C@@H](N)CCSC)[C@@H](C)O)C(N)=O)[C@@H](C)O (stereo partly shown),,"C57BL/6 mouse female, stomach","dose not given, 3 h",baseline: total,mean tissue distribution,44.3%
CC[C@H](C)[C@H](NC(=O)[C@H](C)NC(=O)[C@H](C)NC(=O)[C@H](CCC(N)=O)NC(=O)CNC(=O)[C@H](CC(C)C)NC(=O)[C@H](Cc1c[nH]cn1)NC(=O)[C@H](CCCCN)NC(=O)[C@H](C)NC(=O)CNC(=O)[C@H](CCCCN)NC(=O)[C@H](CCCNC(=N)N)NC(=O)[C@H](CC(C)C)NC(=O)[C@H](Cc1c[nH]c2ccccc12)NC(=O)[C@H](CCCCN)NC(=O)[C@H](CCCCN)NC(=O)[C@H](Cc1c[nH]c2ccccc12)NC(=O)CN)C(=O)N[C@@H](CCCCN)C(=O)NCC(=O)N[C@@H](CC(C)C)C(=O)N[C@@H](C)C(=O)N[C@@H](CO)C(=O)O,,"zebrafish embryos 28 hpf, E3 medium",24 h,,chronic toxic concentration,5 µM
O=C1NC2(CC2)COc2ncc(F)cc2[C@H]2COCCN2c2ccn3ncc1c3n2,,"Sprague-Dawley rat, male, plasma","oral, 5 mg/kg/day, end of recovery, 4-week repeated-dose toxicity",,prothrombin time,9.1 ± 0.3 s
NC1CCN(C(=O)Oc2ccc(C3CCCC4(C3)OOC3(O4)C4CC5CC(C4)CC3C5)cc2)CC1 (racemic),,"male Sprague-Dawley rat, plasma","intravenous, 10 mg/kg",,AUC(0-t),2500 ng·h/mL
CC[C@H](C)[C@H](NC(=O)[C@H](CCCCN)NC(=O)CNC(=O)[C@H](CC(C)C)NC(=O)[C@H](Cc1ccccc1)NC(=O)[C@H](CCCCN)NC(=O)[C@H](CO)NC(=O)[C@H](Cc1ccccc1)NC(=O)[C@H](Cc1c[nH]c2ccccc12)NC(=O)[C@H](CCC(N)=O)NC(=O)[C@@H](NC(=O)[C@H](Cc1ccccc1)NC(=O)CCCCCNC(=O)CN1CCN(CC(=O)O)CCN(CC(=O)O)CCN(CC(=O)O)CC1)C(C)C)C(=O)N[C@@H](CCC(=O)O)C(=O)N1CCC[C@H]1C(=O)N[C@@H](CC(=O)O)C(=O)N[C@H](C(=O)N[C@@H](CO)C(=O)N[C@@H](CCC(N)=O)C(=O)N[C@H](C(=O)N[C@@H](CCC(N)=O)C(=O)N[C@@H](CC(=O)O)C(=O)N1CCC[C@H]1C(=O)N[C@@H](CC(N)=O)C(=O)N[C@@H](CC(=O)O)C(=O)N[C@@H](CCC(N)=O)C(=O)N[C@@H](Cc1ccc(O)cc1)C(=O)N[C@@H](CCC(=O)O)C(=O)N1CCC[C@H]1C(=O)N[C@@H](Cc1ccccc1)C(=O)O)C(C)C)C(C)C [copper-64 labelled],dynamic PET,"mouse both sexes, CT26 tumour, untreated, tumour","intravenous, 100 µCi/mouse, 30 s",,SUVmean,0.29 SUV
CCCC[C@@H]1NC(=O)[C@H](Cc2ccc(O)cc2)NC(=O)[C@@H]2CCCN2C(=O)[C@H](CC(=O)O)NC(=O)[C@H](C)NC(=O)[C@H](Cc2ccccc2)NC(=O)[C@@H]2CSCCC(=O)N3CN(CN(C3)C(=O)CCSC[C@@H](C(=O)N[C@@H](C)C(N)=O)NC1=O)C(=O)CCSC[C@H](NC(C)=O)C(=O)N[C@@H](CC(C)(C)C)C(=O)N1CCC[C@H]1C(=O)N[C@@H](CCC(=O)O)C(=O)N[C@H](CCCCNC(=O)CCc1cn(CCOCCOCCOCCN(CCOCCOCCOCCC(=O)N[C@H]3CSCCC(=O)N4CN5CN(C4)C(=O)CCSC[C@H](NC(=O)[C@@H](CC(=O)O)NC(=O)[C@H](Cc4cccc6ccccc46)NC(=O)[C@@H]4CCCN4C3=O)C(=O)N[C@@H](CCSC)C(=O)N[C@@H](CCCCNC(=N)N)C(=O)N[C@@H](CC(=O)O)C(=O)N[C@@H](Cc3c[nH]c4ccccc34)C(=O)N[C@@H](CO)C(=O)N[C@@H]([C@@H](C)O)C(=O)N3CCC[C@H]3C(=O)N3C[C@H](O)C[C@H]3C(=O)N[C@@H](Cc3c[nH]c4ccccc34)C(=O)N[C@H](C(N)=O)CSCCC5=O)CCOCCOCCOCCn3cc(CCC(=O)NCCCC[C@H]4NC(=O)[C@H](CCC(=O)O)NC(=O)[C@@H]5CCCN5C(=O)[C@H](CC(C)(C)C)NC(=O)[C@@H](NC(C)=O)CSCCC(=O)N5CN6CN(C5)C(=O)CCSC[C@H](NC(=O)[C@H](Cc5ccc(O)cc5)NC(=O)[C@@H]5CCCN5C4=O)C(=O)N[C@@H](Cc4ccccc4)C(=O)N[C@@H](C)C(=O)N[C@@H](CC(=O)O)C(=O)N4CCC[C@H]4C(=O)N[C@@H](Cc4ccc(O)cc4)C(=O)N[C@@H](CCCC)C(=O)N[C@H](C(=O)N[C@@H](C)C(N)=O)CSCCC6=O)nn3)nn1)C(=O)N1CCC[C@H]1C(=O)N[C@@H](Cc1ccc(O)cc1)C(=O)N2,,cynomolgus monkey,,,Vdss,0.88 ± 0.23 L/kg
COc1ccc(CNc2ccc3c(c2)S(=O)(=O)C=C3)cc1,flow cytometry,"male C57BL/6 mice, spleen","i.p., 20 mg/kg, 8 days",baseline: CD45+ cells,Gr-1+ CD11b+ cells,1.2%
CC[C@H](C)[C@H](NC(=O)[C@H](C)NC(=O)[C@H](CCCCN)NC(=O)[C@H](CCCCN)NC(=O)[C@@H](N)CCCNC(=N)N)C(=O)N[C@@H](CCCCN)C(=O)N[C@@H](CC(C)C)C(=O)N[C@H](C(=O)N[C@@H](CCCCN)C(=O)N[C@@H](CCCCN)C(=O)N[C@@H](CC(C)C)C(=O)N[C@H](C(=O)N[C@@H](CCCCN)C(=O)N[C@@H](CCCCN)C(=O)N[C@@H](CC(C)C)C(=O)N[C@@H](CCCCN)C(=O)N[C@@H](CCCCN)C(=O)N[C@@H](C)C(=O)N[C@@H](CC(C)C)C(=O)N[C@@H](CCCCN)C(=O)O)C(C)C)C(C)C,,human red blood cells,"0.25 mg/L, 1 h, mean of replicates",,hemolysis,0.106%
CC(C)[C@H](NC(=O)[C@@H](NC(=O)[C@H](CCCNC(=N)N)NC(=O)[C@H](CCCNC(=N)N)NC(=O)[C@H](CCCNC(=N)N)NC(=O)[C@H](CCC(N)=O)NC(=O)[C@H](CCCNC(=N)N)NC(=O)[C@H](CCCNC(=N)N)NC(=O)[C@H](CCCCN)NC(=O)[C@H](CCCCN)NC(=O)[C@H](CCCNC(=N)N)NC(=O)CN)[C@@H](C)O)C(=O)N[C@H](C(=O)N[C@@H](CO)C(=O)N1CCC[C@H]1C(=O)O)[C@@H](C)O,,"ICR mice, female, heart","intranasal, 10 mg/kg daily, 4 weeks",,organ weight,0.166 ± 0.038 g
